Measured values collected from several papers.
Protocols differ between the studies behind these lines. Several values in a cell are separate wells, animals, samples, runs or records.
UniProt Q9ULW8, sequence (whole entry, looked up): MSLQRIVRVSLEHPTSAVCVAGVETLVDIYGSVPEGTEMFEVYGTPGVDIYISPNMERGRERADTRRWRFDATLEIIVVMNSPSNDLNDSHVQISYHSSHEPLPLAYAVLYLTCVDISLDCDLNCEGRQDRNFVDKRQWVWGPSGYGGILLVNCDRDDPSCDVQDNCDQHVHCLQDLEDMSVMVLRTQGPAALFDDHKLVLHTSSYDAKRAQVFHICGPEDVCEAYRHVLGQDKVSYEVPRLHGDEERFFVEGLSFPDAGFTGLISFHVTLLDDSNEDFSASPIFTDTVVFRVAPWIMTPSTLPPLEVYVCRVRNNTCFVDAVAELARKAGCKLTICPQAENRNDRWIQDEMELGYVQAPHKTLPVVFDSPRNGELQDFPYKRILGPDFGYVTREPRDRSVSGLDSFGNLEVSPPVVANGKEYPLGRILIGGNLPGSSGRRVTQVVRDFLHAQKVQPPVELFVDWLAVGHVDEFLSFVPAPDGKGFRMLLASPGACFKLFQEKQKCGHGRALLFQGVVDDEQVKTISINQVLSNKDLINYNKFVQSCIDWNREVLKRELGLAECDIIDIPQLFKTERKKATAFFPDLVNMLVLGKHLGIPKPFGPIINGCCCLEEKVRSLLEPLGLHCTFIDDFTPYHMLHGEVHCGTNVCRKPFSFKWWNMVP
UniProt P53355, sequence (whole entry, looked up): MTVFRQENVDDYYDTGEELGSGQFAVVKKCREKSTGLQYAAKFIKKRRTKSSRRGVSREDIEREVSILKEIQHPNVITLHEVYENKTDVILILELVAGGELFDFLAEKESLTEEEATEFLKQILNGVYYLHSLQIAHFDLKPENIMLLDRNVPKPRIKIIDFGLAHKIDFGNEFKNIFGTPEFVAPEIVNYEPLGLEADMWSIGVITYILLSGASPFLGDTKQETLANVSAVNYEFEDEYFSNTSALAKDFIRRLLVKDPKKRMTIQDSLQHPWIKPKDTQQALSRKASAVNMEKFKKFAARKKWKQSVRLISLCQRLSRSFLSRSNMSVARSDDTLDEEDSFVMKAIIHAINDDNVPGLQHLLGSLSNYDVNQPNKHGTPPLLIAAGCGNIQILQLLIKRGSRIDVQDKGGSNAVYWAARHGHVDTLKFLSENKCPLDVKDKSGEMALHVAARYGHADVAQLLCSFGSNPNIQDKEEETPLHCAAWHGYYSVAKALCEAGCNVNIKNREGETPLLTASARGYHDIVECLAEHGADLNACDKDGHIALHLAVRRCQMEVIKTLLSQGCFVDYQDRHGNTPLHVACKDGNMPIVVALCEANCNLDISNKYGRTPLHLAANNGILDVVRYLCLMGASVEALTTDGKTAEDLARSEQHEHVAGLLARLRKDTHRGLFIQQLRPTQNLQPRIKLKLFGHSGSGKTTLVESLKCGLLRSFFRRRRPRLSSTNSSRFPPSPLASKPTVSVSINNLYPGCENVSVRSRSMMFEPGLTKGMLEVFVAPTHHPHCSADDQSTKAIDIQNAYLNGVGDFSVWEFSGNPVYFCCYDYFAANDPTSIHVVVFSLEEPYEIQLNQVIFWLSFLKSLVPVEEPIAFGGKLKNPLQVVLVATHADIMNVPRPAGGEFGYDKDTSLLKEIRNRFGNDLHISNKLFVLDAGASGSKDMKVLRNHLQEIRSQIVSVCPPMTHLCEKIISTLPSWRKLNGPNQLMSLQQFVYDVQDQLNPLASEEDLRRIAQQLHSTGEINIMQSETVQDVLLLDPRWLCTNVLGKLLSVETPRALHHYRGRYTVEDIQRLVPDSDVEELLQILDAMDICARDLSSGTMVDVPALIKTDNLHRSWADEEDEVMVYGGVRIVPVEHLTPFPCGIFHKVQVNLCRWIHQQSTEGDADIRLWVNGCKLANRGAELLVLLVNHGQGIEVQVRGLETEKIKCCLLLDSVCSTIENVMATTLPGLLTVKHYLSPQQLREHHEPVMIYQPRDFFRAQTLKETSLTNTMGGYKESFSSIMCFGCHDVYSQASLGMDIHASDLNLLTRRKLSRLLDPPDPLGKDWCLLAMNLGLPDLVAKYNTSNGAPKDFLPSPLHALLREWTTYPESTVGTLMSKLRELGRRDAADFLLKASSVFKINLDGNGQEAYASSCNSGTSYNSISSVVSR
UniProt Q9Y616, sequence (whole entry, looked up): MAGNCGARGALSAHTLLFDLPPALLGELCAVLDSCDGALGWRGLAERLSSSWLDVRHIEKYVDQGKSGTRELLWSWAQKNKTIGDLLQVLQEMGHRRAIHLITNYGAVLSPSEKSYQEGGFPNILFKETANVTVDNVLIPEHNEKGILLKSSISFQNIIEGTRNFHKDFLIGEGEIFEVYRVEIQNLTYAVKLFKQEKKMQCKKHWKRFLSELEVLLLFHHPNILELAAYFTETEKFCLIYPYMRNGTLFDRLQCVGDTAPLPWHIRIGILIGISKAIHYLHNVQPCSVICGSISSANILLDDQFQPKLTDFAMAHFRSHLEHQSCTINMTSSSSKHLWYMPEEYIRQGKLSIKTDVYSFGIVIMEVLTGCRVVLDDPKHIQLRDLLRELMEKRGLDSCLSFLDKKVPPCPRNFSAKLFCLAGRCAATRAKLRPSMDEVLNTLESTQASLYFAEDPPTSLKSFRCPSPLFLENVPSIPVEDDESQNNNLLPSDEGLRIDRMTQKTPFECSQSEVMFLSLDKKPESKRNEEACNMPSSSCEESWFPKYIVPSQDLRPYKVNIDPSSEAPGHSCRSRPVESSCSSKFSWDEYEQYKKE
UniProt P23443, sequence (whole entry, looked up): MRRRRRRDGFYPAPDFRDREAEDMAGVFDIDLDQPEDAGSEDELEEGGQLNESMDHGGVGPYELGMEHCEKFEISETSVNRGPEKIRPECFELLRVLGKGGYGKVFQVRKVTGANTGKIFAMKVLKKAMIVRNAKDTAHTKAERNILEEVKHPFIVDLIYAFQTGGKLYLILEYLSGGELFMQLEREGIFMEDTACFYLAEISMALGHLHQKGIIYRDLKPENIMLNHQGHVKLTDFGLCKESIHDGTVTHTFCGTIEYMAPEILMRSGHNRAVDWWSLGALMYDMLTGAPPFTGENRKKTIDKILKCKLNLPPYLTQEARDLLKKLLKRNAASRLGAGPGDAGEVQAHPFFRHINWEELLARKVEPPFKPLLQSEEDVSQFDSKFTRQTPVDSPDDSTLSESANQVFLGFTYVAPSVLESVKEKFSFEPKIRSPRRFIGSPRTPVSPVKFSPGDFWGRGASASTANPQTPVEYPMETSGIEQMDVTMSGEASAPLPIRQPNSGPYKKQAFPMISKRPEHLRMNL
UniProt P48730, sequence (whole entry, looked up): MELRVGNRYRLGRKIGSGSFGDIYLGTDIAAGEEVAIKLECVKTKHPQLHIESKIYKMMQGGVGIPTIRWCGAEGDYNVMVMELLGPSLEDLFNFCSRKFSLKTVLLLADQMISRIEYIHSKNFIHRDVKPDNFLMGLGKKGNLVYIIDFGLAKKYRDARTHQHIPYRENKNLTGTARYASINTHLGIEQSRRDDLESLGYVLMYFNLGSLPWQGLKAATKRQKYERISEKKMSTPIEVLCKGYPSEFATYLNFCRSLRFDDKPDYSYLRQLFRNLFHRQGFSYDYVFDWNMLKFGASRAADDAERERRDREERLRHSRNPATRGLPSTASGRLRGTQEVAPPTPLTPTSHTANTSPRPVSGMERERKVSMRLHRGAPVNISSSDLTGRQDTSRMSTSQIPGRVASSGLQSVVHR
UniProt Q9ET22, sequence (whole entry, looked up): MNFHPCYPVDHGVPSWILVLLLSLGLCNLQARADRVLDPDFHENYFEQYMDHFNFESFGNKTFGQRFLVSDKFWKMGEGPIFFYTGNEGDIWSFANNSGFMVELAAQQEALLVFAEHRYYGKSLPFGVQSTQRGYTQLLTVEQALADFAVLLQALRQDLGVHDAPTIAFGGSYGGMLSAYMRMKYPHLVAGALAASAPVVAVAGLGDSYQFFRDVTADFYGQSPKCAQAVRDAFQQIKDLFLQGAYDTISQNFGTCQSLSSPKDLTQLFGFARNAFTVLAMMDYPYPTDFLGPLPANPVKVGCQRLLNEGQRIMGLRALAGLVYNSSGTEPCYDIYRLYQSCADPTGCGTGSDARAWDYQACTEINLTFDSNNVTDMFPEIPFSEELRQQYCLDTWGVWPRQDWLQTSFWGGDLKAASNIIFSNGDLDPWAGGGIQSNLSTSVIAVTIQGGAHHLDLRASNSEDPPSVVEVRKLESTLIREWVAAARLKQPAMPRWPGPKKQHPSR
UniProt P37288, sequence (whole entry, looked up): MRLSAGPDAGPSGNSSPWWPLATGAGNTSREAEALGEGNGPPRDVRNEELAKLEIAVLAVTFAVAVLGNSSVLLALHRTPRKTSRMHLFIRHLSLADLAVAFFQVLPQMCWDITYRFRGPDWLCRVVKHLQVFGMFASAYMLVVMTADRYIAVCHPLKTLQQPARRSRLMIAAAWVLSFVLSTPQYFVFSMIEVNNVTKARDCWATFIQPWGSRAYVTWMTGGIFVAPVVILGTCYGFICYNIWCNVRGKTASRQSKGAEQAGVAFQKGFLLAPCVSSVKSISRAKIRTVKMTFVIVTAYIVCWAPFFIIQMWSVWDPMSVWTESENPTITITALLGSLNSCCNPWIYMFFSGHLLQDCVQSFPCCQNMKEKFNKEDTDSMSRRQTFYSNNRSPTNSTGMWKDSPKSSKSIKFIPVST
UniProt P27361, sequence (whole entry, looked up): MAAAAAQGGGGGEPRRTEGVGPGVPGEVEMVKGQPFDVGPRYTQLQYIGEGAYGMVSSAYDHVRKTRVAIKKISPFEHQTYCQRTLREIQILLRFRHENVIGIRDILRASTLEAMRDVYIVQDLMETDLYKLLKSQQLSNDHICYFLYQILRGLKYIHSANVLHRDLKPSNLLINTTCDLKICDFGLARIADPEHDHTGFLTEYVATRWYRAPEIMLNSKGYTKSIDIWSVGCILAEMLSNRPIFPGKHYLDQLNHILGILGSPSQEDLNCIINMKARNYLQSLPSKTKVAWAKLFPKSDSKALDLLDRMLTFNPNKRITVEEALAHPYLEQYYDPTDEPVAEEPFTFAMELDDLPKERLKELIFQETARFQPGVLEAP

CC(C)[C@H]1NC(=O)C[C@H]2/C=C/CCSSC[C@@H](NC1=O)C(=O)N[C@H](Cc1cccc3ccccc13)C(=O)NCC(=O)O2 — inhibition (Ribosomal protein S6 kinase beta-1 (RPS6KB1, Homo sapiens, UniProt P23443); enzyme activity, inhibitor; 10 µM): 16.8%
Nc1ccc(/C=C/C(=O)N2CCc3c(oc4c(-c5ccc(F)cc5)cc(-c5ccc(C(=O)N6CCC(F)(F)CC6)cn5)cc34)C2)cn1 — remaining binding (Mitogen-activated protein kinase 3 (MAPK3, Homo sapiens, UniProt P27361); binding, competition with immobilised ligand; 1 µM): 100%
CN(C)[C@H]1C[C@@]23CC[C@@]4(O2)C(=CC[C@]2(C)[C@@H](c5ccc6ccncc6c5)CC[C@H]24)C=C3[C@@H](O)[C@@H]1O — inhibition (Interleukin-1 receptor-associated kinase 3 (IRAK3, Homo sapiens, UniProt Q9Y616); ATP probe labelling, inhibitor, KiNativ profiling; 1 µM): 20.3%
CS(C)(=O)=Nc1ccc(-c2ccc(-c3nc4cc(O[C@@H]5CO[C@H]6[C@@H]5OC[C@H]6O)[nH]c4cc3F)cc2)cc1 — inhibition (Death-associated protein kinase 1 (DAPK1, Homo sapiens, UniProt P53355); enzyme activity, inhibitor; 10 µM): 5%
N[C@H](C(=O)N1CCCC1)C1CCN(c2nccc3c(-c4ncc(Cl)cc4Cl)cccc23)CC1 — kcat (Protein-arginine deiminase type-3 (PADI3, Homo sapiens, UniProt Q9ULW8); enzyme activity; 0.0983 µM, with: Ca2+ 0.25 mM): 0.0538 s⁻¹ and 0.0623 s⁻¹
COCC1CCCCN1C(=O)n1cc(C(O)(c2ccccc2)c2ccccc2)nn1 (stereo not drawn) — SILAC activity ratio (Dipeptidyl peptidase 2 (Dpp7, Mus musculus, UniProt Q9ET22); probe labelling, inhibitor, competitive ABPP-SILAC, measured: Dpp7; mouse T cells; concentration not given, 4 h, protein level; reference: treated over DMSO cells, lower = stronger inhibition): 1.31
O=C1NC(=O)c2c1c1cc(F)c[n+]3c1c1c2c2cc(O)ccc2[n]1[Ru-4]312([N]=C=S)[S+]3CC[S+]1CC[S+]2CC3 (stereo not drawn) — remaining activity (Casein kinase I isoform delta (CSNK1D, Homo sapiens, UniProt P48730); enzyme activity; 100 nM, human enzyme, with: 10 µM ATP; reference: untreated): 2%
CONC(=O)[C@H]1[C@@H](O)[C@@]2(O)c3c(OC)cc(OC)cc3O[C@@]2(c2ccc(OC)cc2)[C@@H]1c1ccccc1 — translation inhibition (cap-dependent firefly luciferase translation; Krebs-2 cell extract; concentration not given, (AG)10-containing reporter): inhibited
Cc1sc2c(c1C)C(c1ccc(Cl)cc1)=NC(CC(=O)OC(C)(C)C)c1nnc(C)n1-2 (stereo not drawn) — inhibition (Vasopressin V1a receptor (AVPR1A, Homo sapiens, UniProt P37288); ligand displacement, radioligand; 1 µM): -5%

Excerpt of the above:
Nc1ccc(/C=C/C(=O)N2CCc3c(oc4c(-c5ccc(F)cc5)cc(-c5ccc(C(=O)N6CCC(F)(F)CC6)cn5)cc34)C2)cn1 — remaining binding (Mitogen-activated protein kinase 3 (MAPK3, Homo sapiens, UniProt P27361); binding, competition with immobilised ligand; 1 µM): 100%
